Assay results gathered from unrelated publications.
Parts stem from different laboratories: compare values within a part only.

Study 1
Target: RNA binding protein fox-1 homolog 2, RRM domain, GST-SBP tag (RBFOX2, Homo sapiens, UniProt O43251-10, residues 100-194)
Technique: RNA Bind-n-Seq
Molecule type: RNA
Sample: in vitro
Concentration: 365 nM
Setting: natural RNA segment, single round, ends assumed
Baseline: no-protein control
Direction: higher = stronger binding
Quantity: RBNS enrichment (R)
Constant ends, left off below: GGGAGUUCUACAGUCCGACGAUC … UGGAAUUCUCGGGUGCCAA
Construct (chain): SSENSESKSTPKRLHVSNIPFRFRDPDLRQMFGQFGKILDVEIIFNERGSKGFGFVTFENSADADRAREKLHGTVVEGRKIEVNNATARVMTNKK
AGAAACUUUGAAUUUUUAAGAAAGGCUUCUAACUAAUUGCUUUAAUCUAUCUAUAGACUGUAGUAAGAUGCAAUGUGGCUCUUUUCUUUUAGGUUGUGUGCAGUUGAUAU: 0.579
UUACUGUUGUUCACAGAUGAAAACAGAUACGCUAGGGCUAGUUUUGAAAAACACUAAUUCUCUUCAGUCUUCUUUAGUGAAGACUUACACUUGCAAAGUCUGUGCCGCCU: 0.334
GUUAACCUUUUUGUAAAUACUGCUUGACCGUACUCUCACAUGUGGCAAAAUAUGGUUUGGUUUUUCUUUUUUUUUUUUUUUGAAAGUGUUUUUUCUUCGUCCUUUUGGUU: 0.876
GACCAGCCUGACCAAACAUGGCGAAACCCCAUCUGUACUGAAAAUACAAAAAUUAGGCAUGGUGGUGCAUGCCUGUAGUUCCAGCUACUUGGGAGGCUGAGACAGGCGAA: 0.574
GCGGUGUCACCAUGAGCACCUCCAGCUGUACUAGUGCCAUUGGAAUAAUAAAUUUGAUAAGGUGGUGCUCUGUUCUGCAUUUUUCACGGUGUCUUCGCAGGGGAGCGGGG: 0.76
UGUCCACCAGUGAUCUCAAGCAUGGCUUAGGGCUGGCAGGGACCUGAGCCCUCAUUUCACAAUGUGAUUCAGGCUACAGGUUUUUUUGGGGGGACAAAUCUUGUUUCUCU: 0.395
GGAUGGGGCCUCAUACAACCCUUCAUCUGCACUCAACAUUUAAUCGUGUCCUUGCUGUCUUUUUAUUUUCCUUUUUGUUUGUUAGCAAAAACCUCUAUUUAGAUUUCAAU: 0.671
AUACCAGUAUUUCCAUAACAGAGAAUGGUGAGCCCUAUGAUGCUGAAGGGAUUCCAUCUCUCCAUCUCCCAGUUUAUCAUUGUGGUCCAAUUACAUAGUCAGCUACAUAA: 0.502
UCCAGGCUGGAAGAAUUGUAACAUAGCAUGAUAUCUUUGUGUUAACUUGAAAGGACUGACCCCAUUGUCCCUUAGAAGUACUGACGUGUGCCAUCACGCAUUUAAGACAG: 6.11
UACCACUGGCGCCUAUGCGAUCACUUCAUUUUUAGUUUGAGUUGCACCAGAAGCUGCCGUAGAAAGCCAUGCGCUACUGCUUACCUCCUCCACUCCCCCUGCCUGCCCCC: 0.982
UGUAGGCUUCUCCCUUGUGCAAAGCUUAGCAAUUUGUAGGAAACUUUGAUCUUUUUGUCCAAGAAAAGGAAUGUCUGACAGGCUUAAGCUUUCGUCCCCUUGCACUUAGA: 0.399
ACCCACUUUAUUCAGUUCUGUACAUAUGGGGACAUCGGUCCAAGCCCAACCCACCUUAGCAUGUAUCACUCUGUGGAGAAUAAAGCACCCUAUGUACACAGCCAAAAGCC: 26.3

Study 2
Target: Ras GTPase-activating protein-binding protein 1, RRM domain (G3BP1, Homo sapiens, UniProt Q13283)
Chain of UniProt Q13283 (whole entry, looked up): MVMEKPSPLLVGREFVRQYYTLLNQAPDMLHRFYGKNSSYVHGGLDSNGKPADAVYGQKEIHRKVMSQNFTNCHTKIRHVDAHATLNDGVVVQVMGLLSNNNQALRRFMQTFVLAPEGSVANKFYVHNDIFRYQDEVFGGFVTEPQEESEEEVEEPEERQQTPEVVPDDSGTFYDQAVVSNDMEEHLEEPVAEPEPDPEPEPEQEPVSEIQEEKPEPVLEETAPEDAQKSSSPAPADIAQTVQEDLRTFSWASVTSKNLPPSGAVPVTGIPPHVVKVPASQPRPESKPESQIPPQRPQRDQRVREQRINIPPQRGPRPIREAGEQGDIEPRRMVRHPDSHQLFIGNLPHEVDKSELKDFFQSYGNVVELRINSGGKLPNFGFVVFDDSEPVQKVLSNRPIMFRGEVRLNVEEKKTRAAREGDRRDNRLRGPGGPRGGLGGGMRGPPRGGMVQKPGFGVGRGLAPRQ
Technique: RNA Bind-n-Seq
Molecule type: RNA
Sample: in vitro
Concentration: 1 µM
Setting: whole 134-nt RNA, ends assumed
With: 150 mM KCl
Baseline: input library
Direction: higher = stronger binding
Quantity: log2 enrichment
Constant ends, left off below: GGGAGUUCUACAGUCCGACGAUC … UGGAAUUCUCGGGUGUCAAGG
ACCAUGCAGGUGGGCAUCUUUGGGAAGUGGGGCAAAGGGGGGAUAGGGAGGGGGGUAACACUUUGGGAACAGGUGGUCCCAGGUCGUUUC: -0.371
UUUGCAGAGCAGUCUCUGAUGAAGAAUGCCAUAAAAACAUCGGAGGAGUCAUGGAUUGAACAGCAGAUGCUAGAAGACAAGAAACGGGCC: 0.101
UAACUUUAGAGGAGGAUCUGAUGGAUAUGACAGUGGACGUGGAUUUGGGGAUGGCUAUAAUGGGUAUGGAGGAGGACCUGGAGGUGGCAA: -0.836
UGUGCUACACAUCGUAUGUACCGAAUCGGGUUUUUUUGGGGUUUUUUUGGGGUUUUUUUGGGGAAAGUAUUAUGUUACGCCGUUCGGAUC: -0.0142
GUCCUGUGCUACACAUCGUAUGUACCGAAUCGGGGUUUUUGGUUUUUGGGGUUUUUGGGAAAGUAUUAUGUUACGCCGUUCGGAUCUGCA: -0.139
CUGUGCUACACAUCGUAUGUACCGAAUCGGCCCCCCCGGCCCCCCCGGGGCCCCCCCGGGGAAAGUAUUAUGUUACGCCGUUCGGAUCUG: -0.704
GCAGGAAGUAAAAACAAAUGGAAAUGCUUCGGAUAGUGGCAGGGGUGGGGGUUGCUAAGGAAAGGGUGGGAUGGGAGUGGGUAUAGAGUU: 0.77
CCUGUGCUACACAUCGUAUGUACCGAAUCGGGCCCCCCGGGCCCCCCGGGGCCCCCCGGGAAAGUAUUAUGUUACGCCGUUCGGAUCUGC: -0.671
GUCCUGUGCUACACAUCGUAUGUACCGAAUCGGGGCCCCCGGCCCCCGGGCCCCCGGGGAAAGUAUUAUGUUACGCCGUUCGGAUCUGCA: -0.681
GCAGGAAGUAAAAACAAAUGGAAAUGCUUCGGAUAGCGGCAGGGGUGGGGGUUGCUAAGGAAAGGGUGGGAUGGGAGUGGGUAAAGAGUU: 0.654
UGGCGCCGUUCGACACCAGGCGGAUCCGCUCUGCAGCACGAACCCAUCUCCAGCCGCAGCCGCAGCCGCCGCCCGGGCCGAGGAGCAGCC: -0.646
GUCCUGUGCUACACAUCGUAUGUACCGAAUCGGUUUUUGGGUUUUUGGGGUUUUUGGGGAAAGUAUUAUGUUACGCCGUUCGGAUCUGCA: -0.168
ACCAUGCAGGUGGGCAUCUUUGGGAAGUGGGGCAAGGGGGGGAUAGGGAGGGGGGUAACACUUUGGGAACAGGCGGUCCCAGGUCGUUUC: 0.928
UUCUUACAUGUGUAAUCUUCUUCUCCUAGGGCGGCAGAACUCAUGACAAGAACAAGCUCUGUGGUGACACUGGAAGUAGCAAAGCAGGGU: 0.0668

Study 3
Target: UBE2S UBC core domain (UniProt Q16763)
Technique: yeast two-hybrid
Sample: yeast
Setting: mostly zero background
Baseline: not given
Direction: higher = stronger interaction
Quantity: lacZ reporter activity
B1: DTX4 RING domain (UniProt Q9Y2E6); chain QKVRHPPDEDCTICMERLTAPSGYKGPQPTVKPDLVGKLSRCGHVYHIYCLVAMYNNGNKDGSLQCPTCKTIYGVKTGTQ
B2: TRIM5 RING domain (UniProt Q9C035); chain ILVNVKEEVTCPICLELLTQPLSLDCGHSFCQACLTANHKKSMLDKGESSCPVCRISYQPENIRP
B3: TRIML1 RING domain (UniProt Q8N9V2); chain LMENLREELTCFICLDYFSSPVTTECGHSFCLVCLLRSWEEHNTPLSCPECWRTLEGPHFQS
B4: RNF111 RING domain (UniProt Q6ZNA4); chain EGTEEDTEEKCTICLSILEEGEDVRRLPCMHLFHQVCVDQWLITNKKCPICRVDIEAQLPSE
B5: TRIM40 RING domain (UniProt Q6P9F5); chain LQKDNQEEGVCPICQESLKEAVSTNCGHLFCRVCLTQHVEKASASGVFCCPLCRKPCSEEVLG
B6: RNF208 RING domain (UniProt Q9H0X6); chain SSAAAGEPLECPTCGHSYNVTQRRPRVLSCLHSVCEQCLQILYESCPKYKFISCPTCRRETVLFTDYG
B7: NEURL1 RING domain (UniProt O76050); chain VTPGLGQWSDECTICYEHAVDTVIYTCGHMCLCYACGLRLKKALHACCPICRRPIKDIIKT
B8: TRIM24 RING domain (UniProt O15164); chain EAARLNLLDTCAVCHQNIQSRAPKLLPCLHSFCQRCLPAPQRYLMLPAPMLGSAETPPPVPAPGSPVSGSSPFATQVGVIRCPVCSQECAERHII
B9: VPS41 RING domain (UniProt P49754); chain KGVLVDEENICESCLSPILPSDAAKPFSVVVFHCRHMFHKECLPMPSMNSAAQFCNICSAKNRGPGSAI
B10: SH3RF2 RING domain (UniProt Q8TEC5); chain DDLTLLDLLECPVCFEKLDVTAKVLPCQHTFCKPCLQRVFKAHKELRCPECRTPVFSNIEAL
Construct (chain): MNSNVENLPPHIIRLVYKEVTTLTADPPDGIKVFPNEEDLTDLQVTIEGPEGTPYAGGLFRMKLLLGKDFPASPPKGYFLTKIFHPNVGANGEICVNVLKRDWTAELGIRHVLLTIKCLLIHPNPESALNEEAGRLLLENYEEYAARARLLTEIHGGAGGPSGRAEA
B1 (DTX4 RING domain): 0
ASLPTSEEDLCPICYAHPISAVFQPCGHKSCKACINQHLMNNKDCFFCKTTIVSVEDWE (RNF123 RING domain (UniProt Q5XPI4)): 0
VEPSEENSKDCVVCQNGTVNWVLLPCRHTCLCDGCVKYFQQCPMCRQFVQESFALC (CGRRF1 RING domain (UniProt Q99675)): 0
B2 (TRIM5 RING domain): 0
B3 (TRIML1 RING domain): 0
MPIRALCTICSDFFDHSRDVAAIHCGHTFHLQCLIQWFETAPSRTCPQCRIQVGKRTIIN (TRAIP RING domain (UniProt Q9BWF2)): 0
B4 (RNF111 RING domain): 0
GAAPGPEAAECLVCSELALLVLFSPCQHRTVCEECARRMKKCIRCQVVVSKKLRPD (MIB2 RING domain (UniProt Q96AX9)): 0
B5 (TRIM40 RING domain): 0
B6 (RNF208 RING domain): 0
B7 (NEURL1 RING domain): 0
B8 (TRIM24 RING domain): 0
DHGAVGQEMCCPICCSEYVKGEVATELPCHHYFHKPCVSIWLQKSGTCPVCRCMFPPPL (PJA1 RING domain (UniProt Q8NG27)): 0
FQGDVDEDLICPICSGVLEEPVQAPHCEHAFCNACITQWFSQQQTCPVDRSVVTVAHLRP (RNF41 RING domain (UniProt Q9H4P4)): 0
B9 (VPS41 RING domain): 0
B10 (SH3RF2 RING domain): 0

Study 4
Target: RING finger protein unkempt homolog, zinc fingers 1-6, GST-SBP tag (UNK, Homo sapiens, UniProt Q9C0B0, residues 30-357)
Chain of UniProt Q9C0B0 (30-357, looked up): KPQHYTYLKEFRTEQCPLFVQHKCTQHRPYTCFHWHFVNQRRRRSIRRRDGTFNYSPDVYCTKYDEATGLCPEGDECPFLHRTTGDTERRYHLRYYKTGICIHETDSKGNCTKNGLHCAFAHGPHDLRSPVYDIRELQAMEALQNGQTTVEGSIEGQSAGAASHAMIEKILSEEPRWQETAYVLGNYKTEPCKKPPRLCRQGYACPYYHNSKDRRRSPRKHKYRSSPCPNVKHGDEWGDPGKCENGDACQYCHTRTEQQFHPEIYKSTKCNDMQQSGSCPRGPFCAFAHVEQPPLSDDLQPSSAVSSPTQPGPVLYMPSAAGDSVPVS
Technique: RNA Bind-n-Seq
Molecule type: RNA
Sample: in vitro
Concentration: not given
Setting: RNA with constant flanks, human-mouse chimeric sites, ends assumed
Baseline: input RNA pool
Direction: higher = stronger binding
Quantity: bound/input enrichment
Constant ends, left off below: GGGAGUUCUACAGUCCGACGAUC … CAACAGAGGAUUGAGCAUCA
GCCACCAGAUCCCAGAAACAUGACUCUUGCUGCCUACAAAGAGAAGAUGAAGGAGCUCCCACUAGUGUCCUUGUUCUGCUCCUGCUUCCUGGCCGAUCCCCUGAAUAAGUCGUCCUACAA: 0.834 ratio
ACAGUUAUAUUGUUGAGUUUCAUUUUCAUAUAUUCUUGUAGUGUCUGCUUGCCUGUGACUUCUGGUAAAAUAAGACUUUAAAAUUACAAUAUUUUAGCAUGGUAUUUAACAUUUUCUAAA: 6.97 ratio
ACUCAGAGAUCCACCUCCCAAAGUGCUGGGAGUAAAGGUGUGGCCACCACACCUAACUUGAUGGAUAUUUUAUAAAGUUAAUAUGAAUGAACUCUUGCGUCCAGGGAAGAAAGAUUUGUU: 0.309 ratio
GCACUUCUCAAAUACUGGCCAAAGACUCACAGUCCAAAAGAAGUAAUGUUCUUAAACGAAUUAGAAGAGAUUUUAGAUGUAAUUGAACCAUCAGAGUUUGUGAAGAUCAUGGAGCCUCUU: 0.625 ratio
AUCAAAUACUUUGGGGACAUCAUUAGUGUGGGACAGAGACUGUUGCAAGGAGCUCGGAUCUUAGGGAUUCCAGUUAUUGUAACAGAACAAUACCCUAAAGGACUUGGCAGCACCGUUCAA: 0.165 ratio
AAUGUUCUUAAUAUUUUUAAAGGAAGCAAGCUAAAAUGUCUGCUUUUGGUACAACACGCAUUAAUAAAAGGUUAAGUUUUGUUUUCCACUGAAGUACUAUUUAACAUCUCAGAAAAAAAC: 0.199 ratio
GGGACUGAUUCAUCCCAAGGACAGGCAACCCCAUUUGAUGCCUGGACUGAUGACAGUAUGGAAGGGCCUAGUCAAAAUUUUGAAGCUGAGUCAAUUCAGGAUGCCAUGAGUAUGGAAGAG: 0.436 ratio
ACACAAUAUGAGACCAACAGCAUGGACUUCAAAGUCGGGGCAGAUGGGACAGUCUUCGCCACCCGGGAGCUGCAGGUCCCCUCCGAGCAGGUGGCGUUUACCGUCACUGCAUGGGACAGC: 0.176 ratio
UUCUAGUGAAUCUGUGAUAUUGGCAAUUAUUAUUAUGGCCAGGGUCAUCCCAUGAAGCCUCAUAGAAUCCGGAUGACUCAUAACUUGCUGCUAAAUUAUGGUUUAUACCGAAAAAUGGAA: 0.295 ratio
AAAGCCCAAGUAUUUUGAAAAAACUCGAACAGAUUUAACAAGGGUAGCCAGCUUGGAGUCUAGCAACUUGCCAAUGUGUUUACCAAUCUGGGGGCUUUGUUUUUCUUUCUUCUUUCAAAU: 0.275 ratio
AAUUUCCGCAACUGUUUUUUAGACAUUCACAUCAGACUUACAGAGCACCUGGCCACAUUCUAGGUUUGUGUUAUUUCUCAGCUAUGGGGGUAUGAUUAUGAGAACACUGCUUAACUAAUG: 0.917 ratio
